Measured values of several laboratories.
Protocols differ between the studies behind these lines. Numbers after ± are the reported error. In brackets after ≈: the same amount, converted by molar mass.

NC(=O)c1ncn([C@@H]2O[C@H](CO)[C@@H](O)[C@H]2O)n1
EC50 (Influenza A virus H3N2; viral replication, visual CPE score; MDCK): 3000 ± 1000 nM

Cc1c2c([nH]c(=O)c1CNC(=O)c1ccc(Br)nc1)CCCC2
MIC (Mycobacterium tuberculosis; microbial growth, resazurin; H37RV): > 50 µg/mL

C[C@@H]1N=C(c2ccccc2Cl)c2cc([N+](=O)[O-])ccc2NC1=O
trans-surface potential (Schistosoma mansoni; current clamp; adult males; 10 µM, 10 min): -3.6 ± 0.4 mV

NC(=O)c1ncn([C@@H]2O[C@H](CO)[C@@H](O)[C@H]2O)n1
IC50 (coxsackievirus B3; viral replication): 222000 nM

CC[C@H](CO)Nc1nc(NCc2ccccc2O)c2ncn(C(C)C)c2n1
IC50 (unidentified influenza virus; viral replication, inhibitor; MDCK, H1N1 PR/8; 24 h): > 20000 nM

CCC(CC)O[C@@H]1C=C(C(=O)O)C[C@H](N)[C@H]1NC(C)=O
EC50 (influenza A virus; cytopathic effect, MTS; MDCK, H1N1): 350 ± 200 nM

CCC(CC)O[C@@H]1C=C(C(=O)O)C[C@H](N)[C@H]1NC(C)=O
MBIC90 (Streptococcus pneumoniae; biofilm formation; no inhibition up to value): > 50 µM

COc1cc(Cc2ccc(C(=O)NCc3c4c(c(C)[nH]c3=O)CCCC4)cc2)cc(OC)c1
inhibition (Mycobacterium tuberculosis; microbial growth, resazurin; H37RV; 25 µg/mL): 93.1%

O=C(N/N=C1\C(=O)Nc2ccc(Cl)cc21)N/N=C1\C(=O)Nc2ccc(Cl)cc21
EC50 (Influenza A virus H3N2; viral replication, MTS; MDCK): > 100000 nM

COc1ccc(-c2ccc(C(=O)NCc3c4c(c(C)[nH]c3=O)CCCC4)cc2)cc1OC
inhibition (Mycobacterium tuberculosis; microbial growth, resazurin; H37RV; 25 µg/mL): 54.7%

CC(=O)N[C@H]1[C@H]([C@H](O)[C@H](O)CO)OC(SCCOCCOCCOCCSC2(C(=O)O)C[C@H](NC(=N)N)[C@@H](NC(C)=O)[C@H]([C@H](O)[C@H](O)CO)O2)(C(=O)O)C[C@@H]1NC(=N)N (some centres unmarked)
IC50 (Influenza A virus; viral replication): 10 to 1000 nM

CCN(CC)CCCC(C)Nc1ccnc2cc(Cl)ccc12 (centres unmarked)
IC50 (unidentified influenza virus; viral replication, inhibitor; MDCK, H1N1 PR/8; 24 h): 5300 nM

CC(=O)N[C@H]1[C@H]([C@H](O)[C@H](O)CO)OC(SCCCCCCCCCCCCSC2(C(=O)O)C[C@H](NC(=N)N)[C@@H](NC(C)=O)[C@H]([C@H](O)[C@H](O)CO)O2)(C(=O)O)C[C@@H]1NC(=N)N (some centres unmarked)
IC50 (Influenza A virus; H1N1 A/California/07/2009): 10 to 1000 nM

CN[C@@](C)(C[18F])C(=O)O
tracer uptake (DU-145 tumour model; host not given, kidney; 1 h, tumour-bearing): 6 %ID/g

CNC(=O)ON=C(C)SC
LD50 (Spodoptera frugiperda; insecticidal activity; larvae; topical): 310 mg/kg

CCc1cc(CC)c(CNC(=O)c2ccc(C(F)(F)F)nc2)c(=O)[nH]1
MIC (Mycobacterium tuberculosis; microbial growth, resazurin; H37RV): 6.7 µg/mL (≈ 19 µM)

CC(N)C12CC3CC(CC(C3)C1)C2 (centres unmarked)
EC50 (Influenza A virus H3N2; viral replication, visual CPE score; MDCK): 400 nM

CCOC(=O)C1=C[C@@H](OC(CC)CC)[C@H](NC(C)=O)[C@@H](N)C1
IC50 (Influenza A virus; 0.5 h): 1 to 10 nM

O=C1Nc2ccccc2/C1=N/NC(=S)N/N=C1\C(=O)Nc2ccccc21
EC50 (Influenza A virus H3N2; viral replication, MTS; MDCK): 34000 ± 9500 nM

Cc1[nH]c(=O)c(CNC(=O)c2ccc([N+](=O)[O-])o2)c2c1CCCC2
MIC (Mycobacterium tuberculosis; microbial growth, resazurin; H37RV): 2.8 µg/mL (≈ 8.45 µM)
